Published values pooled from the literature.
Every numbered part comes from another study and shows a few of its results, in no order. Changes are numbered by the printed parent chain.

Study 1
Target: RNA binding protein fox-1 homolog 2, RRM domain, GST-SBP tag (RBFOX2, Homo sapiens, UniProt O43251-10, residues 100-194)
Technique: RNA Bind-n-Seq
Form: RNA
Sample: in vitro
Tested at: 365 nM
Setting: natural RNA segment, single round, ends assumed
Baseline: no-protein control
Direction: higher = stronger binding
All sequences stand within: GGGAGUUCUACAGUCCGACGAUC … UGGAAUUCUCGGGUGCCAA
Construct (chain): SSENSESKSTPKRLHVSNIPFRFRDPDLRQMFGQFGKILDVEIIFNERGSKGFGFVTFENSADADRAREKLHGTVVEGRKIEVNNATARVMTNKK
Strand | RBNS enrichment (R)
CCAAAUGUAGCUCAUACCUCUUUAUAAAACUAAACUGUUGUUAGAUAAAAUGAGAAGAGACCAUUCCAUCAUUGAAGUGUUGGAAUAUAAAAAGACAUUCCAGAGCAUAG | 1.04
GCUGCUUCAGUAAGAAAAUGUAGAAACUGGAAUAUGAGCCCAGUAAGAGUCCCUGAGAGAGCUUCAGCUUAUAACAAGGCUAAUUUUAGGUUGUACGUCAUUCUCGAUGU | 0.587
UGCAGUACUGAGUAUGGUGCUUGCUCUUUCACUUAACUGAUAAGAGGGACAUGCCUACUAGGAGUUUUUAAUGAUGUGGUAUUUAAAGUAUUGUCUCUUAGUUAAGUAUG | 0.665
AUUUUGAAUUGAGUGAAGUGCAAUUUCAUUGGAUAGCUAAGUAUCUUUGUAAGAUAGAGAUUGUUGAAAAUUCUAUUUUUGUUUUUCAAGUCCUCCCACCCCAGGACUCU | 0.496
AGUGUGUGCUCUUCCUUCCUUAAAACCUUUAGAUGUCCUGUUACACUAACACAGGUCUUCCCUUCCCUCCAACCCCAGGUUUCAGGUCUCAGAGCCAAGCCAGGGUUGGA | 0.352
UGGCAUAGGGUGAGGCACAGCUUGAAAGGUGGUCAGACCUGCUUGGGCUUCUUUGCUUUUCAAAUGUCCUAGCUCUGUAGUUCGUGCUGUCAUUGGUUUGAUUGUCUCAC | 0.63
AUUGAUAGCUCUUAAAGGAGUGAAAAUCUAAAAUAGUAAAUUUCAAUGUUAAGUGUCUGCUUUAUGGGCAUAUAUAAAAGUAGACACAUUUCAUUUGUUAAUUUAGUUGU | 0.766
UUGGGCUUUCUGUUGAAUGAAUCAACAAACCACAAUACUUCCUGGGACCUUUUGUACUUUAUUUGAACUAUGAGUCUUUAAUUUUUCCUGAUGAUGGUGGCUGUAAUAUG | 0.509
UAAUUUUCUGUAUAUUUGGAAUAUUUGGGUUAAAAAUAAAACAGACUGGACUUUGUUACCUGACCUAUGAAAUGACUAAGCUACAGUUUGUUGAUAUACUUUUUCCAGUU | 0.671
UAUUUAAAAGGGAUACUUUUGUAAAAGUAAAACCUUGUAUAAAGAACAAAAUGUUUCUUAAUUUUAUUGUGGAGUUACAACUUGCAUGUUCCUUACUCCUGUUGGCUUGA | 12.1
AAGAAGCUUCCUGCAAUGCCCAGGAGCAUCCCACAGGCAAUAGAGUACCAAUAUGGUAGACCUCUUUCACAGUCAAUCUCAGCCCUGGAAAUUAUGUUCUACUAUGCUCA | 0.303
AUGGGUGAUGUGUGAUCUACCAGUGGCUGGGUUCACCCAUCAGUAAUCAGAGCAAGACAAAUGAGAGCAAAGCCCCAUGUGACUCCUCCUACUGCUGUGUUGUUUCAAAC | 0.577

Study 2
Target: Sal-like protein 4, full length isoform B (SALL4, Homo sapiens, UniProt Q9UJQ4-2, residues 1-616)
Technique: universal PBM
Form: double-stranded DNA, one strand shown
Sample: in vitro
Tested at: not given
Setting: 8-mer, flanks averaged, mean of replicates
Direction: higher = stronger binding
Strand | E-score
CCTTCGTC | -0.148
ACATCCGC | -0.107
CCCGTTCG | -0.115
ATCGAGCA | -0.107
ACCCCAGG | -0.393
ACGGGCCG | -0.402
TCTCGACA | 0.0858
CGTACAAG | 0.001
ATGGAGTG | -0.0471
CACTCGCC | -0.169
CGTTGGAG | -0.166
GAGAATCA | 0.00653
AAAACGTA | 0.161
GTATGCTA | 0.176
AGCGACCA | -0.0903
ACCACACA | 0.117
CCCGGGAA | -0.274
CGGCGATA | -0.0289
GAGTTCAA | 0.143
AACAGGAT | -0.00773
AATTGCGT | 0.0359
CGGTGAGC | -0.28
TAGCTCGA | -0.191
ATACTTAG | 0.12
CCACAAGG | -0.267

Study 3
Target: UBE2Q2 UBC core domain (UniProt Q8WVN8)
Sequence of UniProt Q8WVN8 (whole entry, looked up): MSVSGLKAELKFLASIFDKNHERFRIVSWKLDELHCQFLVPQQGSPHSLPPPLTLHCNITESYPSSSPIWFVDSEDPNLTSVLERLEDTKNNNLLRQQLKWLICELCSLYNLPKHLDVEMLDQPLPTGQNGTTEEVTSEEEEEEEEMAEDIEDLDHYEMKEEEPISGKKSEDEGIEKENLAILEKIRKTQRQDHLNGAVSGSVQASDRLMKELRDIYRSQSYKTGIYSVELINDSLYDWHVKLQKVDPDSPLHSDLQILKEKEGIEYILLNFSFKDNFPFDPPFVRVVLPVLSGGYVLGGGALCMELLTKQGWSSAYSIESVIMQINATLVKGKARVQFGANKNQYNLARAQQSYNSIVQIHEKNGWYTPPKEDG
Technique: yeast two-hybrid
Sample: yeast
Setting: mostly zero background
Baseline: not given
Direction: higher = stronger interaction
B1: RNF135 RING domain (UniProt Q8IUD6); chain PVWLAEDDLGCIICQGLLDWPATLPCGHSFCRHCLEALWGARDARRWACPTCRQGAAQQPHLR
B2: Ltn1 RING domain (UniProt Q6A009); chain VDKRFEGVEDCMICFSVIHGFNYSLPKKACRTCKKKFHSACLYKWFTSSNKSTCPLCRETFF
B3: DTX1 RING domain (UniProt Q86Y01); chain QKVKNPPDEDCTICMERLVTASGYEGVLRHKGVRPELVGRLGRCGHMYHLLCLVAMYSNGNKDGSLQCPTCKAIYGEKTGTQ
Sequence | lacZ reporter activity
B1 (RNF135 RING domain) | 0
B2 (Ltn1 RING domain) | 0
B3 (DTX1 RING domain) | 0
NTAPSLTVPECAICLQTCVHPVSLPCKHVFCYLCVKGASWLGKRCALCRQEIPEDFLDK (RNF146 RING domain (UniProt Q9NTX7)) | 0
ALDRLEKLLRCSRCTNILREPVCLGGCEHIFCSNCVSDCIGTGCPVCYTPAWIQDLKI (BARD1 RING domain (UniProt Q99728)) | 0
KEQLEKHNDICAICYQDMKSAVITPCSHFFHAGCLKKWLYVQETCPLCHCHLKNSSQLP (RNF145 RING domain (UniProt Q96MT1)) | 0

Study 4
Target: CCND3, cyclin fold, Cln2 fusion (human)
Technique: yeast growth competition, sequencing
Sample: yeast
Setting: weak parent motif
Baseline: not given
Direction: higher = stronger binding
Starting sequence: HASPIN docking peptide (human); ASLRSVLFGLMNS
Change | normalised enrichment score
M11A | 0.713
R4A | -1.07
S5A | -0.267
F8A | -0.436
S2A | -0.776
L10A | 0.469

Study 5
Target: ABI1, truncated, D143A, DHFR fusion (Arabidopsis thaliana)
Technique: DHFR PCA, deep sequencing
Sample: yeast
Setting: methotrexate growth selection, single substitutions
Added: (+)-ABA 200 µM
Baseline: wild-type fitted maximum
Direction: higher = stronger binding
Starting sequence: PYL1, truncated, DHFR fusion (Arabidopsis thaliana); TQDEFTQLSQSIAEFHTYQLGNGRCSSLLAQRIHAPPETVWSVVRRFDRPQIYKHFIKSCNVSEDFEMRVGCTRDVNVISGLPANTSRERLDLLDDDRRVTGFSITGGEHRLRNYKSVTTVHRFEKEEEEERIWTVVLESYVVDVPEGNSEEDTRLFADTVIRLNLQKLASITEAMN; partner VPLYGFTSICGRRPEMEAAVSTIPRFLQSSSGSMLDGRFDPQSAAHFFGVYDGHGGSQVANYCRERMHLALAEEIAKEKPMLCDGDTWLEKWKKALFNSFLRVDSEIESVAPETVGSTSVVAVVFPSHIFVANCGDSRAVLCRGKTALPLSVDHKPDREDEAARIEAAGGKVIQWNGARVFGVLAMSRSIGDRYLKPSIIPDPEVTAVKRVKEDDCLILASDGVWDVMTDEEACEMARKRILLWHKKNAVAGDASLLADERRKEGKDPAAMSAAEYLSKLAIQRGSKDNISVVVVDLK
Change | relative binding score
L138Q | 45.5%
I12W | 56.1%
Q31R | 96%
T160K | 85.6%
T101P | -1.44%
E131I | 101%
E38C | 84.6%
G23I | 68%
V136L | 95.9%
L138N | 18.4%
G71Y | 33.2%

Further values, each from its own experiment
Technique: two-hybrid
Baseline: out of 4 tests
Direction: higher = firmer interaction
T1: itself; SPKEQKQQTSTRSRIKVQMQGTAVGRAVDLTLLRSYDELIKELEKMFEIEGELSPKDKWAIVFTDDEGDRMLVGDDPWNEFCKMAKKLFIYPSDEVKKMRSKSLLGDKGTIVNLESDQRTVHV
T2: itself; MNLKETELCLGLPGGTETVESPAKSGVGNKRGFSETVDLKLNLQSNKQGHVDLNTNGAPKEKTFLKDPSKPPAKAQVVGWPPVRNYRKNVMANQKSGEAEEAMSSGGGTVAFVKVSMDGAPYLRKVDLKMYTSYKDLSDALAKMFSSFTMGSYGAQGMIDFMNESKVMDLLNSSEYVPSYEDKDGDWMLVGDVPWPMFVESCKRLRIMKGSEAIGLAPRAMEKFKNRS
T3: itself; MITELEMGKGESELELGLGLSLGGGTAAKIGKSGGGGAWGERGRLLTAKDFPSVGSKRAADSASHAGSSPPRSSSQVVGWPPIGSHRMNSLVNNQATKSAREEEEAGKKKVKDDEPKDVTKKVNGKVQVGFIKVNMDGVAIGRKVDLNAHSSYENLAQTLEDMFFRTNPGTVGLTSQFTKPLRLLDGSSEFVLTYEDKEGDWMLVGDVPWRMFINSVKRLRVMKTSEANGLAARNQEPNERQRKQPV
T4: itself; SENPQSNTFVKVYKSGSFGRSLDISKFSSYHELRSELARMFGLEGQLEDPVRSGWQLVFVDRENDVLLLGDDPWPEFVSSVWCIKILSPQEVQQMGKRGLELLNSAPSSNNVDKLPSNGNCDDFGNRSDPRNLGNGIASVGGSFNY
B4: ARF11 500-622 (Arabidopsis thaliana, UniProt Q9ZPY6); chain SPKEQKQQTSTRSRIKVQMQGTAVGRAVDLTLLRSYDELIKELEKMFEIEGELSPKDKWAIVFTDDEGDRMLVGDDPWNEFCKMAKKLFIYPSDEVKKMRSKSLLGDKGTIVNLESDQRTVHV
B5: IAA14 (Arabidopsis thaliana, UniProt Q38832); chain MNLKETELCLGLPGGTETVESPAKSGVGNKRGFSETVDLKLNLQSNKQGHVDLNTNGAPKEKTFLKDPSKPPAKAQVVGWPPVRNYRKNVMANQKSGEAEEAMSSGGGTVAFVKVSMDGAPYLRKVDLKMYTSYKDLSDALAKMFSSFTMGSYGAQGMIDFMNESKVMDLLNSSEYVPSYEDKDGDWMLVGDVPWPMFVESCKRLRIMKGSEAIGLAPRAMEKFKNRS
B6: IAA13 (Arabidopsis thaliana, UniProt Q38831); chain MITELEMGKGESELELGLGLSLGGGTAAKIGKSGGGGAWGERGRLLTAKDFPSVGSKRAADSASHAGSSPPRSSSQVVGWPPIGSHRMNSLVNNQATKSAREEEEAGKKKVKDDEPKDVTKKVNGKVQVGFIKVNMDGVAIGRKVDLNAHSSYENLAQTLEDMFFRTNPGTVGLTSQFTKPLRLLDGSSEFVLTYEDKEGDWMLVGDVPWRMFINSVKRLRVMKTSEANGLAARNQEPNERQRKQPV
B7: ARF6 790-935 (Arabidopsis thaliana, UniProt Q9ZTX8); chain SENPQSNTFVKVYKSGSFGRSLDISKFSSYHELRSELARMFGLEGQLEDPVRSGWQLVFVDRENDVLLLGDDPWPEFVSSVWCIKILSPQEVQQMGKRGLELLNSAPSSNNVDKLPSNGNCDDFGNRSDPRNLGNGIASVGGSFNY
Sequence | partner | positive tests
B4 (ARF11 500-622) | T1, itself | 0
B5 (IAA14) | T2, itself | 0
B6 (IAA13) | T3, itself | 0
B7 (ARF6 790-935) | T4, itself | 0

Repeated from above (study 1):
Strand | RBNS enrichment (R)
CCAAAUGUAGCUCAUACCUCUUUAUAAAACUAAACUGUUGUUAGAUAAAAUGAGAAGAGACCAUUCCAUCAUUGAAGUGUUGGAAUAUAAAAAGACAUUCCAGAGCAUAG | 1.04
AUGGGUGAUGUGUGAUCUACCAGUGGCUGGGUUCACCCAUCAGUAAUCAGAGCAAGACAAAUGAGAGCAAAGCCCCAUGUGACUCCUCCUACUGCUGUGUUGUUUCAAAC | 0.577
UGCAGUACUGAGUAUGGUGCUUGCUCUUUCACUUAACUGAUAAGAGGGACAUGCCUACUAGGAGUUUUUAAUGAUGUGGUAUUUAAAGUAUUGUCUCUUAGUUAAGUAUG | 0.665
UAAUUUUCUGUAUAUUUGGAAUAUUUGGGUUAAAAAUAAAACAGACUGGACUUUGUUACCUGACCUAUGAAAUGACUAAGCUACAGUUUGUUGAUAUACUUUUUCCAGUU | 0.671
AUUGAUAGCUCUUAAAGGAGUGAAAAUCUAAAAUAGUAAAUUUCAAUGUUAAGUGUCUGCUUUAUGGGCAUAUAUAAAAGUAGACACAUUUCAUUUGUUAAUUUAGUUGU | 0.766
GCUGCUUCAGUAAGAAAAUGUAGAAACUGGAAUAUGAGCCCAGUAAGAGUCCCUGAGAGAGCUUCAGCUUAUAACAAGGCUAAUUUUAGGUUGUACGUCAUUCUCGAUGU | 0.587
AGUGUGUGCUCUUCCUUCCUUAAAACCUUUAGAUGUCCUGUUACACUAACACAGGUCUUCCCUUCCCUCCAACCCCAGGUUUCAGGUCUCAGAGCCAAGCCAGGGUUGGA | 0.352
AAGAAGCUUCCUGCAAUGCCCAGGAGCAUCCCACAGGCAAUAGAGUACCAAUAUGGUAGACCUCUUUCACAGUCAAUCUCAGCCCUGGAAAUUAUGUUCUACUAUGCUCA | 0.303
UGGCAUAGGGUGAGGCACAGCUUGAAAGGUGGUCAGACCUGCUUGGGCUUCUUUGCUUUUCAAAUGUCCUAGCUCUGUAGUUCGUGCUGUCAUUGGUUUGAUUGUCUCAC | 0.63
